Assay results gathered from unrelated publications.
Each line is one published result; not all experiments were run side by side. ± gives the spread as reported.
Cell line: HEK293

| Molecule | assay | setting | IC50 |
| --- | --- | --- | --- |
| N.N.[Cl][Pt][Cl] | cell growth or viability, MTT | – | 8 µM |
| [N-]=[N+]=[N-] | oxygen consumption | – | 243 µM |
| C[C@@H]1CC[C@H]2[C@@H](C)C(=O)O[C@@H]3O[C@@]4(C)CC[C@@H]1[C@]32OO4 | cell growth or viability, ATP luminescence | 24 h | > 100 µM |
| O=C(Cn1cnc2ccccc2c1=O)Nc1ccc(O)cc1[N+](=O)[O-] | cell growth or viability, crystal violet | 48 h | > 100 µM |
| C=C(C)[C@H]1Cc2c(ccc3c2O[C@@H]2COc4cc(OC)c(OC)cc4[C@@H]2C3=O)O1 | oxygen consumption | – | 0.026 ± 0.011 µM |
| CC[C@@]1(O)C(=O)OCc2c1cc1n(c2=O)Cc2cc3ccccc3nc2-1 | cytotoxicity, MTT | 48 h | 0.54 ± 0.27 µM |
| O=C(Cn1cnc2ccccc2c1=O)Nc1ncccc1O | cell growth or viability, crystal violet | 48 h | > 100 µM |
| C#CC[C@H](N)C(=O)NCC(=O)NCC(=O)N[C@@H](Cc1ccc(O)cc1)C(=O)N[C@@H](CC(N)=O)C(=O)N[C@@H](CC(C)C)C(=O)N[C@@H](CCCNC(=N)N)C(=O)N1CCC[C@H]1C(=O)N[C@@H](CCCNC(=N)N)C(=O)N[C@H](C(=O)N[C@@H](Cc1ccc(O)cc1)C(=O)N[C@@H](CCC(N)=O)C(=O)N1CCC[C@H]1C(=O)N[C@@H](CCC(N)=O)C(=O)N[C@@H](CCCNC(=N)N)C(=O)N[C@@H](Cc1ccc(O)cc1)C(=O)NCC(=O)NCC(N)=O)[C@@H](C)O | cell growth or viability, MTT | – | > 200 µM |
| Cc1ccc(NC(=O)Cn2cnc3ccccc3c2=O)c(O)c1 | cell growth or viability, crystal violet | 48 h | > 100 µM |
| Cc1ccc(C(C)C)cc1.[Cl][Ru]([Cl])[PH]12CN3CN(CN(C3)C1)C2 | cell growth or viability, MTT | – | > 200 µM |
| Antimycin A | oxygen consumption | – | 0.006 ± 0.001 µM |
